Measured values from different studies.
Numbered parts are unrelated; each lists some results of a single study.

Sample 1 — technique: RNA Bind-n-Seq; form: RNA; medium: in vitro; tested at: 200 nM; notes: whole 134-nt RNA, ends assumed; with: 150 mM LiCl; baseline: input library; reading: higher = stronger binding; each molecule: 7-deaza-guanosine replaces G
Target: Ras GTPase-activating protein-binding protein 1, full length (G3BP1, Homo sapiens, UniProt Q13283)
Sequence of UniProt Q13283 (whole entry, looked up): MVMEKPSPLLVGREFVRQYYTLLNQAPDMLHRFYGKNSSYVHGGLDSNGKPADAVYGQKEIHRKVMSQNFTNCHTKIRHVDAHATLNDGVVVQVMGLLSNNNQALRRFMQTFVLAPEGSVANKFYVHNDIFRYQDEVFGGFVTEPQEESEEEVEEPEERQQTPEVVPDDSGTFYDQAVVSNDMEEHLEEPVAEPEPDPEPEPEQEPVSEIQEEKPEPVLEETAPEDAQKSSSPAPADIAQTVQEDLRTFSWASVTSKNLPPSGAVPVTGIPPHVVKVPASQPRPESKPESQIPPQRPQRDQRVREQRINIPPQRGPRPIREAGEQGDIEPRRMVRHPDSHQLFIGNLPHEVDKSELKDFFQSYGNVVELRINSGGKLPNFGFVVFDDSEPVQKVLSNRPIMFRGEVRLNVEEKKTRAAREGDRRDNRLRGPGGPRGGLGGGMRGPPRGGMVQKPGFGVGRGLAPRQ
Constant ends, left off below: GGGAGUUCUACAGUCCGACGAUC … UGGAAUUCUCGGGUGUCAAGG
| Sequence | log2 enrichment |
| --- | --- |
| UCAACAAGAGAUGUUCAAGAACUUUUGACACAAUAUACCAAGUUUGCACAGAUGGUAAAAAAGAUGGGAGGUAUCAAAGGACUUUUCAAA | -1.09 |
| CUCAAGUCCUGUGCUACACAUCGUAUGUACCGAAUCGGGAAGGAAGGGGAAGGGAAAGUAUUAUGUUACGCCGUUCGGAUCUGCACUUCC | -0.267 |
| CAAGUCCUGUGCUACACAUCGUAUGUACCGAAUCGGUUUGGUUUGGUUUUUUUGGAAAGUAUUAUGUUACGCCGUUCGGAUCUGCACUUC | -1.03 |
| UGGGAGGUGGAUUUUGUUUAUUUUUUUAGCUCAUUUCCAGGGGUGGGAAUUUUUUUUUAAUAGGUGUCAUGAAUAAAGUUGUUUUUGAAA | -0.124 |
| UGGCCCUGGUGGCAUGCGCGGAGGAAGAGGUGGCCUCAUGGAUCGUGGUGGUCCCGGUGGAAUGUUCAGAGGUGGCCGUGGUGGAGACAG | 0.183 |
| UCCUGUGCUACACAUCGUAUGUACCGAAUCGGGGUUUUUGGGGUUUUUGGGGUUUUUGGGAAAGUAUUAUGUUACGCCGUUCGGAUCUGC | 1.08 |
| GUCCUGUGCUACACAUCGUAUGUACCGAAUCGGGGUUUGGGGUGGGGAAAAAAAGGGGAAAGUAUUAUGUUACGCCGUUCGGAUCUGCAC | -0.029 |
| UUCACACCAAGCUGGGGAACAUCAAGACCUUAAACCUGGCAGGCAACCUCCUAGAGAGUCUGAGUGGCCUGCACAAGCUCUACUCACUGG | -0.625 |
| UCCUGUGCUACACAUCGUAUGUACCGAAUCGGGGUUUUUUUGGGGAAAAAGGGGUGGGGAAAGUAUUAUGUUACGCCGUUCGGAUCUGCA | -0.0463 |
| UAACUUUAGAGGAGGAUCUGAUGGAUAUGGCAGUGGACGUGGAUUUGGGGAUGGCUAUAAUGGGUAUGGAGGAGGACCUGGAGGUGGCAA | -1.02 |
| UGGCCCUGGUGGCAUGCGGGGUGGAAGAGGUGGCCUCAUGGAUCGUGGUGGUCCCGGUGGAAUGUUCAGAGGUGGCCGUGGUGGAGACAG | 0.653 |

Sample 2 — technique: protein binding microarray; form: double-stranded DNA, one strand shown; medium: in vitro; tested at: not given; baseline: not given; reading: higher = stronger binding
Target: Histone acetyltransferase KAT6A, winged helix 1, GST fusion (KAT6A, Homo sapiens, UniProt Q92794, residues 1-85)
Notes: 8-mer, flanks averaged, mean of 2 arrays, mostly near background
Residues (chain): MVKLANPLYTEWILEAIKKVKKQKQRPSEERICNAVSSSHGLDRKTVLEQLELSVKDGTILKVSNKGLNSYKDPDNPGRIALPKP
| Sequence | E-score |
| --- | --- |
| GATGGTAC | -0.0459 |
| AAAAGCTT | 0.00783 |
| CGTGCTGC | 0.0405 |
| AAATCGCG | 0.199 |
| ACAGTGCG | 0.26 |
| GCAGACGA | -0.0511 |
| GATCTAAA | -0.126 |
| ATTGAAAA | -0.205 |
| ACCAATGC | 0.0586 |
| CCTTTACG | 0.16 |
| CTATTAGA | -0.2 |
| GCCCGCGC | 0.461 |
| ATTCGAAC | -0.199 |
| AAATTCAC | -0.161 |
| ATCCCCGC | 0.37 |
| GTGGTAAA | -0.271 |
| ATTATGGG | 0.00917 |
| ACATCGGT | -0.0377 |
| CCTGTGTA | -0.157 |

Sample 3 — technique: universal PBM; form: double-stranded DNA, one strand shown; medium: in vitro; tested at: not given; reading: higher = stronger binding
Target: Sal-like protein 4, full length isoform B (SALL4, Homo sapiens, UniProt Q9UJQ4-2, residues 1-616)
Notes: 8-mer, flanks averaged, mean of replicates
| Sequence | E-score |
| --- | --- |
| CCTCCGAA | -0.195 |
| AGTACCAT | 0.19 |
| AACTCATC | -0.0389 |
| CCAGCTCG | -0.338 |
| ATGCTTGA | 0.112 |
| AGATCCTC | -0.0852 |
| AGGCTATA | 0.131 |
| CAGTTGGG | -0.137 |
| ATCTGCAT | 0.146 |
| ACAACTGG | -0.174 |
| AACAAATG | 0.2 |
| AATTCCGG | -0.0326 |
| CATTAGAG | -0.00817 |
| GCATCTGA | -0.0914 |
| GATGCCAC | -0.222 |
| CAAATCAC | -0.0107 |
| ATGTCGAC | 0.13 |
| CCGAGCAG | -0.264 |
| TAACTAAA | 0.181 |
| TGAAGTCA | -0.0127 |
| AGAATCTA | 0.0943 |
| GCGGGGAA | -0.0927 |
| CGGGCCAG | -0.333 |
| CTCTGGTA | 0.0306 |

Sample 4 — technique: RNA Bind-n-Seq; form: RNA; medium: in vitro; tested at: 365 nM; baseline: no-protein control; reading: higher = stronger binding
Target: RNA binding protein fox-1 homolog 2, RRM domain, GST-SBP tag (RBFOX2, Homo sapiens, UniProt O43251-10, residues 100-194)
Notes: natural RNA segment, single round, ends assumed
Constant ends, left off below: GGGAGUUCUACAGUCCGACGAUC … UGGAAUUCUCGGGUGCCAA
Construct (chain): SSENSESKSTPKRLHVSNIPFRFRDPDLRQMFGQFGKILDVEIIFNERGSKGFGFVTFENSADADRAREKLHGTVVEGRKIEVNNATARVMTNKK
| Sequence | RBNS enrichment (R) |
| --- | --- |
| AGACUUUUAAUGUAUUUCUUUAAUUUGAAAUGUUUUGUGGAUUGUGAAAUAAAAAUAAAUUUAUGUCAAGUUUUAUUCAAAAUUCAUUUAUGAAAUAAUGCCAACACUGU | 0.747 |
| UCAUCAAUUUUUCUGACUUUUUAAAUCAUUAUCAUUAUUAUUUUUAAUUAAAAAAAUGCCUGUAUGCCUUUUUUUGGUCGGAUUGUAAAUAAAUAUACCAUUGUCCUACU | 0.743 |
| AGUCACAGAGGAUGAAAUACCACAUCAAGGCAGUGGGAACUUCCUGCGACUUCUCCUGGUCCUCCCCAGAAGUAUCUGGUGUCAGCUGAAGACCAUGUGUCCCCCAAUAC | 0.359 |
| CCAUAGAGUUUUCAAAAUGUGAAUCUUUGGAAGCCUUGAGUUCAGAAUCUGCUGCUCUGGAAUAUUUCCCUUCGAUCUUAUCUCAGUCACUUCGUUUUUGAGAAGAGUGA | 0.391 |
| GGUGUGAGUGAGACAGUGGGGCACAGGUUGGGUUUGCCAAACGCCUAAUUACCAGGCCAGGAAGCAUGCCAACAAAGCCACACGGGUGUCCUAGCCAGCUUCCCUUCACC | 0.258 |
| CAGCAGAGAGCCCCAGCCUCACCCCUGAGGAGCACCUGUGGUCUGUCCCCUUGGUCCUGCUUAUGGCUGGACCGGCCCUGCAGGAGGUGGUGGAGCCGUGAAGGAGGCCG | 0.317 |
| GGUGGGGGCUUCACAAGCAACAUCACUCCCCUCAACAGAACGCAAUGGAAAGAAAGCAUCCCCCCACCCCCUCUGGGUUCGAGCGUUCACCGUCUCCGCACUGUGCCUGC | 0.869 |
| UGCCUGGAUUUUAUACAGUUAUUAAAGGAUGUCUCUUUUGCUUUAAACUGCAUGCUGCCAAGUGCCAUUUGGGGUCAGCAUCCUCGUUUCAACACAGUGUGCUCUCUAGU | 1.66 |
| GCGAGCCUUCCACUCUCCCACGGUCUGGUGUCUCUAUGGAAAUAAAGUCUUAGUAUUGCAUUGGUGUAGAUUGUCUGUGAGAUAUUAGUAUGUGCUGUAUGCAGACCACA | 4.02 |
| GGGAAAAUGGCCUUUUUAAACCCUGUCAAGCCCAUGAUGGAAGACACCACCUCUGCCAUGCCCUGUAUCCCGAGAGCUGCACACACUGCUUCCAGAUUGCUGGUUCCAGA | 0.446 |
| AGUACAGACUUUUUUUUUUUUUUAAACAAAAAAAGCAUUGUAACUUAUGAACCUUUACAUCCAGAUAGGUUACCAGUAACGGAACAGUAUCCAGUACUCCUGGUUCCUAG | 0.288 |
| CAUUGCUCUCUCCUAAGCCCCAACCCCACUCCACUCCUGUGGCCAGGGGUCCAAACAGAAAAUAACCGGAGAAGACAAGGAGGUCAAAGGAUCAGGGAACUAAGCAUUAU | 0.944 |

A few entries again (sample 3):
| Sequence | E-score |
| --- | --- |
| CCTCCGAA | -0.195 |
| AGATCCTC | -0.0852 |
| AGAATCTA | 0.0943 |
| AACTCATC | -0.0389 |
| AACAAATG | 0.2 |
| GCATCTGA | -0.0914 |
| TAACTAAA | 0.181 |
